Measured values collected from several papers.
Parts stem from different laboratories: compare values within a part only. Positions count from the first letter of the parent shown.

Sample 1
Target: CREBRF, bZIP domain (human)
Technique: DHFR protein complementation
Matrix: yeast
Setting: single substitutions, most at no-binding floor
Relative to: wild-type JUN-FOS pair
Reading: higher = stronger binding
Starting sequence: JUN, bZIP domain (human); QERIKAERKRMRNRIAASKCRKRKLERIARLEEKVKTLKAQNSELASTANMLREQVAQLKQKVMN; partner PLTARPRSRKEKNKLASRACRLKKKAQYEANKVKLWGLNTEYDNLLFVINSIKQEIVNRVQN
`A29P` has a binding fitness of -1.49 natural log.
`R30N` gave a binding fitness of -1.47 natural log.
The binding fitness of `S47Q` is reported as -1.2 natural log.
`E33L` has a binding fitness of -1.48 natural log.
`K39A` has a binding fitness of -1.51 natural log.
For `T37G`, the binding fitness was -1.44 natural log.
The binding fitness of `A57M` is reported as -1.24 natural log.
For `L31V`, the binding fitness was -1.44 natural log.
The binding fitness of `S43E` is reported as -1.34 natural log.
The binding fitness of `E54K` is reported as -1.44 natural log.
`Q55R` has a binding fitness of -1.57 natural log.
With `K39G` the binding fitness was -1.47 natural log.
For `R53A`, the binding fitness was -1.44 natural log.
The binding fitness of `S47T` is reported as -1.31 natural log.
With `L45T` the binding fitness was -1.53 natural log.
`E54H` gave a binding fitness of -1.52 natural log.
`A46P` gave a binding fitness of -1.54 natural log.

Sample 2
Target: CCND2, cyclin fold, Cln2 fusion (human)
Technique: yeast growth competition, sequencing
Matrix: yeast
Setting: weak parent motif
Relative to: not given
Reading: higher = stronger binding
Starting sequence: PKMYT1 docking peptide (human); SFEPRNLLSLFED; partner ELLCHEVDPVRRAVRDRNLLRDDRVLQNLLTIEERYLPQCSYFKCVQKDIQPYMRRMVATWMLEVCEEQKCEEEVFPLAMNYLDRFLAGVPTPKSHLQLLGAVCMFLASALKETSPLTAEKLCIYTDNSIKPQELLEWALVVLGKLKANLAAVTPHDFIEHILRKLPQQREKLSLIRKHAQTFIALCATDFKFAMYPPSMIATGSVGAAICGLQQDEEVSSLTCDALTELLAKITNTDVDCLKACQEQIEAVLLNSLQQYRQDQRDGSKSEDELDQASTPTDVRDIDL
`SFEPRNLLSLKED [F11K]`: “normalised enrichment score” 0.341.
For `SFEPQNLLSLFED [R5Q]`, “normalised enrichment score” read 0.309.
For `SFEPRNGLSLFED [L7G]`, “normalised enrichment score” read -0.00203.
`SFEPRNLASLFED [L8A]`: “normalised enrichment score” 0.409.
`SFQPRNLLSLFED [E3Q]`: “normalised enrichment score” 0.191.
For `SFEPRNLLSLFEA [D13A]`, “normalised enrichment score” read 0.164.
`SFEPRNLLSMFED [L10M]` — result for “normalised enrichment score”: 0.22.
`GFEPRNLLSLFED [S1G]` — result for “normalised enrichment score”: -0.0137.
Under “normalised enrichment score”, `SFFPRNLLSLFED [E3F]` is recorded as -0.236.
For `SFEPRNLLSLFEM [D13M]`, “normalised enrichment score” read 0.119.
`SFEPRNLLKLFED [S9K]`: “normalised enrichment score” -0.0521.
Under “normalised enrichment score”, `SFEPRILLSLFED [N6I]` is recorded as 0.167.
Under “normalised enrichment score”, `SFEPHNLLSLFED [R5H]` is recorded as -0.287.
`SFEPRNLLSLQED [F11Q]`: “normalised enrichment score” 0.136.
`SFEPRNLLPLFED [S9P]`: “normalised enrichment score” 0.0736.
`SFEPCNLLSLFED [R5C]`: “normalised enrichment score” 0.144.
`SLEPRNLLSLFED [F2L]` — result for “normalised enrichment score”: 0.0354.
Under “normalised enrichment score”, `SKEPRNLLSLFED [F2K]` is recorded as -0.411.
Under “normalised enrichment score”, `SFEDRNLLSLFED [P4D]` is recorded as 0.0537.

Sample 3
Target: Histone acetyltransferase KAT6A, winged helix 1, GST fusion (KAT6A, Homo sapiens, UniProt Q92794, residues 1-85)
Technique: protein binding microarray
Form: double-stranded DNA, one strand shown
Matrix: in vitro
Tested at: not given
Setting: 8-mer, flanks averaged, mean of 2 arrays, mostly near background
Relative to: not given
Reading: higher = stronger binding
Target sequence (chain): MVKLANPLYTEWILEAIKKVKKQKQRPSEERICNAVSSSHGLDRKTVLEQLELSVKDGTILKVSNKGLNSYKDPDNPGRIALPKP
For `CCGTTATA`, the E-score was 0.141.
With `ACAAATCA` the E-score was -0.0953.
The E-score of `GCATAAAA` is reported as -0.16.
`ACGCATCG` gave an E-score of 0.277.
The E-score of `AAACATGA` is reported as -0.0511.
`AGGCGTGC` gave an E-score of 0.252.
`AAGATGGA` has an E-score of -0.0654.
`CAACCTAA` gave an E-score of -0.158.
The E-score of `AACGGAGT` is reported as 0.175.
`CACTGGCG` gave an E-score of -0.0203.
For `AAAGCAGG`, the E-score was -0.177.
The E-score of `CGTCTTCA` is reported as 0.00331.
`AGAGACCT` has an E-score of -0.214.
The E-score of `AGAAAGGG` is reported as -0.219.
`CAGAACGA` has an E-score of -0.181.
`GCAGATCA` gave an E-score of -0.0576.
With `GTTATGGA` the E-score was -0.185.
With `AGGAAAGC` the E-score was 0.0599.

Sample 4
Target: RNA binding protein fox-1 homolog 2, RRM domain, GST-SBP tag (RBFOX2, Homo sapiens, UniProt O43251-10, residues 100-194)
Technique: RNA Bind-n-Seq
Form: RNA
Matrix: in vitro
Tested at: 365 nM
Setting: natural RNA segment, single round, ends assumed
Relative to: no-protein control
Reading: higher = stronger binding
Residues (chain): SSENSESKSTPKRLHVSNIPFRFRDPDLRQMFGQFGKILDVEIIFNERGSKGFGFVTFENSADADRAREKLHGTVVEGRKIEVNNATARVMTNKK
Under “RBNS enrichment (R)”, `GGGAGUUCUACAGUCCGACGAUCUUGUACAUUGAGAGGAGGGGCUUGGUUUCACCAUCCCCGUCCUUUCCCCACGGAUCCACCAGGAUUGAAGGAGCUUCGGACCCAUGCCGCCUUCUUUUCCCACGCCUCUAUGGAAUUCUCGGGUGCCAA` is recorded as 0.306.
`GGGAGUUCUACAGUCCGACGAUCUUGGACUGAGUGGGUACGGCCAGCCACUCAGCCCAUUGGCAGCUGACAACGCAGACACGCUCUACGGAGGCCUGCUGAUAAAGGGCUCAGCCUUGCCGUGUGCUGCUUCUUGGAAUUCUCGGGUGCCAA` — result for “RBNS enrichment (R)”: 0.288.
Under “RBNS enrichment (R)”, `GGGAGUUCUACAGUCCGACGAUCAGAGAGGUCCAACCCCGUGUGGCCAGGCAGUGGCCCCUCACUCUUGCUUAGUGUCCAUCUCAUUUCUUGAUCAAAGCCACUUUAGUGAGAAAUAGGUACCAGUCCUCAGGUGGAAUUCUCGGGUGCCAA` is recorded as 0.251.
`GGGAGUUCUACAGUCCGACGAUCUAUGUGACUAGUAUUUAUCCUUUACUUCUGUGUUUUCUUAGGAUGUACACUUUUAGAGUUAUAGUGCCUGAUAAUAUUUUUUGAGAGCCUUUAAUAUGAUAUAGGAAGGCUGGAAUUCUCGGGUGCCAA`: “RBNS enrichment (R)” 0.519.
Under “RBNS enrichment (R)”, `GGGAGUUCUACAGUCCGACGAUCUGUCUCCUAAAGGGUCGGUUUUGUUACGCAACACGAAGAAUGCUGUCUCAGCCUUGUUUUUCUAGAGUUGUGUUUUUCAGUCAUUUCUUCAAGAAAAACUAAAAUGAUUUUGGAAUUCUCGGGUGCCAA` is recorded as 0.364.
Under “RBNS enrichment (R)”, `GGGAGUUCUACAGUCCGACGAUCUGCACUAGGGCUUGUCCGUCCAUAAGGAAUUCCCCUCUGCUUUGCUCAAAGGACCAAAUUUCUUUGGCCAAAGAAGUUGCUUCUAUGUUAGUCCCAUACCCUGAAGUAAUUGGAAUUCUCGGGUGCCAA` is recorded as 0.498.
`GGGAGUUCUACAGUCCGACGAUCAGGGAAUAUUUUAACUCGCAAGGUGAUGUUCUGUACAAAACGUGGUAUAUGUUACCCACAGUCCAUUUCAGUUAUUCCCACAAGUCAGGUCCAGAUAAAUGAGGGUUAUCUGGAAUUCUCGGGUGCCAA`: “RBNS enrichment (R)” 0.976.
For `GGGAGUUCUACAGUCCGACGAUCAAUACAAAGGAGACGAGGGAGGACUGUGGCUGGCGCUGAGGUUUUGGUCUUGCGAACCCCUAAAUUCUCUCGCUCACGACUGCACAGACUGUCUUGCGGCUCCUCUAUAGUGGAAUUCUCGGGUGCCAA`, “RBNS enrichment (R)” read 0.525.
For `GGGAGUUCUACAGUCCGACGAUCGUUGAUUUCUCUACAGAGCUUAGCUUGUGUAGUUAUUUCUCUUUUACUGUUGCUUUGGUGUGUCUUGAAGUUUGAUUGAUUAUUUUUGGUCAUUGAGUUCUUAGUGUAGUUGGAAUUCUCGGGUGCCAA`, “RBNS enrichment (R)” read 1.42.
`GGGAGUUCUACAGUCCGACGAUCACACAAGCCAGUAUUCUGUGAACAAGUUCCAGAUGAAAAACACAGAAGUUGUGAAUGAAGUUGUAGCCAUUCCCUGCCCUGCACUAUAUUUUUCAGGGUGCAUUUUAAAUUGGAAUUCUCGGGUGCCAA` — result for “RBNS enrichment (R)”: 0.379.
Under “RBNS enrichment (R)”, `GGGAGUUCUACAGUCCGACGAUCGAAAUAAUUUUAUUUAAUAUAAAUGAUCACAUGUCCUCAAUCAUGAAUGAGGUAGGGAGCCUCUCUCCCCCAGUGGCCAUGUUUACAAAAGUGUGUUUUGUCUAUAAAGUUGGAAUUCUCGGGUGCCAA` is recorded as 0.64.
Under “RBNS enrichment (R)”, `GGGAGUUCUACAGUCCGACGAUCCCAGUGUUCUCCUGUAAAUCUCACUGUAAAAAUCUCAAUGCAAAAACACUGAGACAGGAGUGAGACCAGCUGCGGGUGGGGAGUUUGUGCUCCGCAGGUUACCUCAUGGCUGGAAUUCUCGGGUGCCAA` is recorded as 0.296.

Sample 5
Target: ABI1, truncated, D143A, DHFR fusion (Arabidopsis thaliana)
Technique: DHFR PCA, deep sequencing
Matrix: yeast
Setting: methotrexate growth selection, single substitutions
Together with: (+)-ABA 0.39 µM
Relative to: wild-type fitted maximum
Reading: higher = stronger binding
Starting sequence: PYL1, truncated, DHFR fusion (Arabidopsis thaliana); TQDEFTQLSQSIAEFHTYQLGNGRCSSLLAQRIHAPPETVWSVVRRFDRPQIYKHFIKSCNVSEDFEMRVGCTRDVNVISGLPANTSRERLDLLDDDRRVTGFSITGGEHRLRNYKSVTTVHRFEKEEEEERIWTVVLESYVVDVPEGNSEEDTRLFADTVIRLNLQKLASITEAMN; partner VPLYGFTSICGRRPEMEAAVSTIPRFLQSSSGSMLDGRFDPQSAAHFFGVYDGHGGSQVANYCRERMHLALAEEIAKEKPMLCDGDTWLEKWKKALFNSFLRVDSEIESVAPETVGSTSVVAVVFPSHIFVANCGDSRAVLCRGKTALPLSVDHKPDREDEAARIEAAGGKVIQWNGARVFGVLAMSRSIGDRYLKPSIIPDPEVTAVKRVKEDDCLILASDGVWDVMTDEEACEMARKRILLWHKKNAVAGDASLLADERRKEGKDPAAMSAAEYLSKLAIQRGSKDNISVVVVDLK
`L164A`: “relative binding score” 44.3%.
`T1C` — result for “relative binding score”: 44.3%.
For `I79F`, “relative binding score” read 35.6%.
`E38Q`: “relative binding score” 11.7%.
Under “relative binding score”, `L29M` is recorded as 6.27%.
`W41S` — result for “relative binding score”: 2.31%.
Under “relative binding score”, `M176T` is recorded as 26.7%.
Under “relative binding score”, `T17D` is recorded as -2.99%.
`E89H` — result for “relative binding score”: 2.93%.
`V78N`: “relative binding score” 39.2%.
`L138Y` — result for “relative binding score”: -2.66%.
`L166E`: “relative binding score” 3.32%.
`N177Q` — result for “relative binding score”: 22.7%.
Under “relative binding score”, `L93E` is recorded as -5.41%.
Under “relative binding score”, `R155Y` is recorded as -0.557%.
For `E38I`, “relative binding score” read -7.4%.
`V62C`: “relative binding score” 3.19%.
For `G148D`, “relative binding score” read 9.03%.
For `L94R`, “relative binding score” read 5.02%.
For `G108R`, “relative binding score” read -4.38%.

Mixed results
`PhoQ, residues 284 288 289 292 302 303 AGHLVA` has a fold induction of 0.26 (PhoP, residues 12 14 15 18 19 LHATL (Escherichia coli, UniProt P23836); Sort-seq, measured: YFP reporter; E. coli; PhoQ-PhoP variant library, together with: 10 µM Mg2+; relative to: high Mg2+ state, higher = stronger signaling).
